Assay results gathered from unrelated publications.
Lines come from different studies, so protocols differ. Numbers after ± are the reported error.
Target: Mu-type opioid receptor (OPRM1, Homo sapiens, UniProt P35372)
Chain of UniProt P35372 (whole entry, looked up): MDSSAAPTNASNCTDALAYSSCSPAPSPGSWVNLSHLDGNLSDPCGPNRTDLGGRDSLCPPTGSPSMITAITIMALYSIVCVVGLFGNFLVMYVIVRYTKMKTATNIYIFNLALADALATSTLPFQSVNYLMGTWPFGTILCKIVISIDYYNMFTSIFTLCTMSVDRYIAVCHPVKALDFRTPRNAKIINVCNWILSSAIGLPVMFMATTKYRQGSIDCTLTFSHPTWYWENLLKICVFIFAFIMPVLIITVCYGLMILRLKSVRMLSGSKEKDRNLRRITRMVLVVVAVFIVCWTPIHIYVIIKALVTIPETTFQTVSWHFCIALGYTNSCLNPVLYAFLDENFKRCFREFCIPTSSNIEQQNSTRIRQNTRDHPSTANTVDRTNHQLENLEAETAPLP

`C[Si](C)(C)C[C@@H](CN)CC(=O)O` gave an inhibition of 4% (ligand displacement, radioligand; 75 µM).
`CO[C@@H](C)c1c(NC(=O)Nc2cnc(-n3nccn3)c(C(F)(F)F)c2)cnc2sc(C)nc12` has an inhibition of 17.4% (ligand displacement, radioligand; 10 µM).
The inhibition of `Cn1ccc2cc(-n3c(=O)[nH]c4sc5c(c4c3=O)CCCC5)ccc21` is reported as 5% (ligand displacement, radioligand; 10 µM).
`CC(=O)[C@]12NC(C)(C)C[C@@]1(C)C(=O)C1=C2c2c(c3c4n2C(C)(C)CC2=C4[C@@]4(CC(C)(C)N[C@@](C)(C4)C2=O)CC3(C)C)C(=O)C(C)(C)N1` (racemic) gave an activation of 1.18 ± 0.35% (cAMP level, agonist, LANCE Ultra cAMP; CHO; 10 µM).
The inhibition of `CC(=O)c1cnc(N)nc1N1CC[C@H]1c1nn2ccc(Cl)c2c(=O)n1-c1ccccc1` is reported as 12% (ligand displacement, radioligand; 10 µM).
The inhibition of `CNC(=O)C[C@H](Cc1ccc(C#N)cc1)NC(=O)c1cc(-c2ccc(CN[C@H](C)c3ccc(C)cc3)o2)ccc1Cl` is reported as 7% (agonist response, antagonist; 10 µM; relative to: agonist control).
With `C[C@H](CCC(=O)O)[C@H]1CC[C@H]2[C@@H]3[C@H](OS(=O)(=O)O)C[C@@H]4C[C@H](O)CC[C@]4(C)[C@H]3C[C@H](O)[C@]12C` the activity was 1% (100 µM).
The inhibition of `Brc1ccccc1-c1nnc(CSc2nnnn2-c2ccccc2)o1` is reported as 12% (ligand displacement, radioligand; 10 µM).
With `O=C1c2sc(-c3ccc(N4CCC(CO)CC4)nc3F)nc2CCN1c1cccnc1` the inhibition was 9% (ligand displacement, radioligand; 1 µM).
The inhibition of `CCC(=O)N(C)c1ccc(Cl)c(Cl)c1` is reported as less than 10% (ligand displacement, radioligand; 10 µM).
For `COc1ccc(C(=O)Nc2c(-c3cccs3)nc3ccccn23)cc1`, the inhibition was less than 50% (ligand displacement, radioligand; 10 µM).
`COc1ncc2nc(C)n(Cc3ncc(S(N)(=O)=O)cc3F)c2c1-c1ccccc1` has an activation of 0.456% (agonist, cell-based; 10 µM).

A few entries again:
The inhibition of `Brc1ccccc1-c1nnc(CSc2nnnn2-c2ccccc2)o1` is reported as 12% (ligand displacement, radioligand; 10 µM).
With `O=C1c2sc(-c3ccc(N4CCC(CO)CC4)nc3F)nc2CCN1c1cccnc1` the inhibition was 9% (ligand displacement, radioligand; 1 µM).
